Earlier results, collected from citations in different studies.
± gives the spread as reported.

CC[C@H](C)[C@H](N)C(=O)N[C@H](C(=O)NCC(=O)N[C@@H](CC(C)C)C(=O)N[C@@H](CCSC)C(=O)N[C@H](C(=O)NCC(=O)NCC(=O)N[C@H](C(=O)N[C@H](C(=O)N[C@H](C(=O)N[C@@H](C)C(=O)O)[C@@H](C)CC)C(C)C)C(C)C)C(C)C)[C@@H](C)CC
IC50 (PC-12, differentiated; amyloid-β42 neurotoxicity, inhibitor, refers to: MTT reduction): 14 ± 2 µM

Cc1cc2ccc3c(c2cc1O)CCC(=O)C3(C)C
IC50 (human neutrophils; elastase release; with: fMLF): 4.3 µM

C=CC(=O)N1CCC[C@@H](n2nc(-c3ccc(Oc4ccccc4)cc3)c3c(N)ncnc32)C1
IC50 (Raji; cell proliferation): 20.9 µM

CC(C)C[C@H]1NC(=O)[C@H](CC(=O)O)NC(=O)CNC(=O)[C@H](CCCNC(=N)N)NC(=O)[C@H](C)NC1=O
IC50 (WM-115; cell adhesion, inhibitor; with: immobilized CagL wild type): 2.31 µM

COc1ccc(CCN(C)C(=O)/C=C/c2ccc(O)cc2)cc1
IC50 (neutrophils; superoxide production; with: fMLF): 12 µM

COc1c2occc2cc2ccc(=O)oc12
IC50 (metastatic colon cancer cells; cell growth; without photoactivation): 88.5 µM

COC(=O)c1cc2c(C(F)(F)F)cc(-c3ccccc3)cc2n1O
IC50 (A549; cell growth, SRB; 72 h, normoxia): 44.1 ± 6.2 µM

O=CCc1ccc(O)c(O)c1
IC50 (PC6-3; cell viability, MTT; 2 h): ~65 µM

COc1ccc(/C=C\c2cc(OC)c(OC)c(OC)c2)cc1O
IC50 (MDA-MB-435; cell proliferation): 0.0034 ± 0.0006 µM

CC(C)C[C@H](NC(=O)[C@H](CCc1ccccc1)NC(=O)CN1CCOCC1)C(=O)N[C@@H](Cc1ccccc1)C(=O)N[C@@H](CC(C)C)C(=O)[C@@]1(C)CO1
IC50 (HFF fibroblasts; cell growth): 0.492 µM

O=c1c2ccccc2[se]n1-c1ccccc1
IC50 (Kupffer cells; nitric oxide generation): ~3 µM

C=C(C)[C@@H](CC=C(C)C)C[C@@]12C[C@@H](CC=C(C)C)C(C)(C)[C@]3(C=CC(C)(C)OC3=C(C(=O)c3ccccc3)C1=O)C2=O
IC50 (neutrophils; superoxide production; with: fMLF): 0.11 µM

Cc1ccc(C(=O)Nc2ccc(CN3CCN(C)CC3)c(C(F)(F)F)c2)cc1C#Cc1cnc2cccnn12
IC50 (K562): 0.006 µM

C[C@@]12CCC[C@@](C)(C(=O)O)[C@H]1CC[C@@]13C[C@@H](CC[C@H]12)[C@@](O)(CO)C3
IC50 (human neutrophils; elastase release; with: fMLF): 12.5 µM

CN(C)CCOc1ccc(-c2oc3ncnc(NCC4SCCS4)c3c2-c2ccccc2)cc1
IC50 (ACK1-dependent cell line; cell growth): 0.005 µM

Nc1nc2[nH]c(CCCc3ccc(C(=O)N[C@@H](CCC(=O)O)C(=O)O)s3)cc2c(=O)[nH]1
IC50 (KB; cell proliferation, inhibitor): 0.00026 ± 3e-05 µM

CC1(C)CC[C@]2(C(=O)O)CC[C@]3(C)C(=CC[C@@H]4[C@@]5(C)CC[C@H](O)C(C)(C)[C@@H]5CC[C@]43C)[C@@H]2C1
IC50 (human neutrophils; elastase release; with: fMLF): 0.75 µM

O=c1[nH]cc(F)c(=O)[nH]1
IC50 (A549, HeLa, CFPAC-1, SW-620; cell viability, MTT; range over cell lines): 0.08 to 8.81 µM

Nc1nc2[nH]c(CCCCCCc3ccc(C(=O)N[C@@H](CCC(=O)O)C(=O)O)cc3)cc2c(=O)[nH]1
IC50 (CHO D4, human FRβ-expressing; cell growth; with: folic acid 200 nM): > 1 µM

Cn1cnc2c(F)c(Nc3ccc(Br)cc3Cl)c(C(=O)NOCCO)cc21
IC50 (solid tumour cell lines; ERK1/2 phosphorylation, inhibitor): < 0.04 µM

C=C1C(=O)O[C@H]2[C@H]1CC/C(C)=C/CC[C@@]1(C)O[C@@H]21
IC50 (HL-60; cell growth, inhibitor): 9.3 ± 3.8 µM
